Experimental data pooled from the literature.
Numbered parts are unrelated; each lists some results of a single study. Changes are numbered by the printed parent chain.

Series 1
Change: D65L
Target: ABI1, truncated, D143A, DHFR fusion (Arabidopsis thaliana)
Technique: DHFR PCA, deep sequencing
Medium: yeast
Setting: methotrexate growth selection, single substitutions
Reference: wild-type fitted maximum
Reading: higher = stronger binding
Parent: PYL1, truncated, DHFR fusion (Arabidopsis thaliana); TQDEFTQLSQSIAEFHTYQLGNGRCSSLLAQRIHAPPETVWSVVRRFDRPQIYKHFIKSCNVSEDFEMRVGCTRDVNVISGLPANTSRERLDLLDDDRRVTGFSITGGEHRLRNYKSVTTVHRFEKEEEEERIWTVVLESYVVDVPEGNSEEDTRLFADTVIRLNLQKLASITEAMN
| setting | relative binding score [%] |
| --- | --- |
| added: (+)-ABA 710 µM | 91.6 |
| added: (+)-ABA 0.11 µM | 0.5 |
| added: (+)-ABA 4.8 µM | 32.1 |
| added: (+)-ABA 1.4 µM | 11.3 |
| added: (+)-ABA 0.032 µM | 4.25 |
| added: (+)-ABA 0.0091 µM | 1.64 |

Series 2
Target: RING finger protein unkempt homolog, zinc fingers 1-6, GST-SBP tag (UNK, Homo sapiens, UniProt Q9C0B0, residues 30-357)
Sequence of UniProt Q9C0B0 (30-357, looked up): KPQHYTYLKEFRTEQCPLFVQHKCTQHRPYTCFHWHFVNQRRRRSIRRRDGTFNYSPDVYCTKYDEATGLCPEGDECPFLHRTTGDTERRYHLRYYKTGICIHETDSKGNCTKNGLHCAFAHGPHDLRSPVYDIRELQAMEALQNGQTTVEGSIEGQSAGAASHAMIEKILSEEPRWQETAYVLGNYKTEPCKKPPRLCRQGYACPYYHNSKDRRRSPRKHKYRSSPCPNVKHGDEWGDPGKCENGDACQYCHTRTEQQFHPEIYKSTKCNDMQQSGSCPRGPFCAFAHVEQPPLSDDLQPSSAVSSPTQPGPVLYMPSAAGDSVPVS
Technique: RNA Bind-n-Seq
Molecule type: RNA
Medium: in vitro
Concentration: not given
Setting: RNA with constant flanks, human-mouse chimeric sites, ends assumed
Reference: input RNA pool
Reading: higher = stronger binding
Constant ends, left off below: GGGAGUUCUACAGUCCGACGAUC … CAACAGAGGAUUGAGCAUCA
| Sequence | bound/input enrichment [ratio] |
| --- | --- |
| GAUGAUAAUCACACAAACAAGUCACUGUUAUGUGACCAGCCUUGGGAUUCUUUUCCUGAUUAGUAUUCUCCCUGGAACCACUGGUCAAGGGGAAUCAAGACGACAAGAACCCGGGGACUU | 0.158 |
| ACUCAGAGAUUAUAUUCCCAAAGUGCUGGGAGUAAAGGUGUGGCCACCACACCUAACUUCAUAGACAUAUAUUUUUUUUAAUAUGAAUCUUCCUGUUCGUCCAGGGAAGAAAGAUUUGUU | 3.87 |
| ACUCUUGACUCUUUCCAUUCUCGUCCCUUCCCUCUUGAUAUUCAAGGCCAUGAAUCCCAAAAUAACAGUCUUAGUGGCUAGCACCCAAACAGAGGUGGAAUAAAUCCAAACUGACAACUC | 0.607 |
| CCAAGUGAUUCAUCCCAAGGACAGGCCACCCCAUUUGAUGCCUGGACUGAUGACAGUAUGGAAGGGCCUAGUCAAAAUGUUGAAGCUGAGUCAAUUCAGGAUGCCAUGAGUAUGGAAGAG | 0.243 |
| GCCACCAGAUCCCAGAAACAUGACCCUUGCAGCCUAUAAAGAGAAGAUGAAGGAGCUCCCGCUGGUGUCCUUGUUCUGCUCCUGCUUCCUGGCCGAUCCCCUGAAUAAGUCGUCCUACAA | 0.277 |
| GAGUCGAGCAAACUUGAAACAAUUCGUUAUCUUGCAGCCUCAGUGUUCACUUGCUUGUGGCAAUAGCUGGGGUUUUAUAGGUUCUGGAAGGAGAACUGACGAUGAUGCUGCCGCUGCUGC | 0.282 |
| GAUCUCGUCUGAGCAUCAGGGGCCUCCUUUCGUAUAGUCACUGCUUCUGCAUCAGAUACUUUCAGCUGCAACUCCCUACUGGGUGGGGCACCCAUUUCAGGCAGAAGGUUUUGGUACCCU | 0.252 |
| ACAGUUAUAUUGUUGAGUUUCAUUUUCAUAUAUUCUUAUGGUGUCUGCUUGCCUGUGACUUCUGGUAAAAUAAAAUAAGCCUUUGAAAAUAUUUUAGAUUUAACAUUAACAUUUUCUAAA | 3.75 |

Other studies, line by line
Molecule type: peptide
Concentration: concentration not given
| Sequence | target | assay | test system | setting | how to read | endpoint | result |
| --- | --- | --- | --- | --- | --- | --- | --- |
| FEYGGFPPA | HLA class I histocompatibility antigen, C alpha chain, allele C*04:01 (Homo sapiens, UniProt P10321) | peptide-MHC binding |  |  |  | binding | inactive |
| AAAVRKPIVLKR | human cyclin B1 | peptide binding, yeast competitive growth sequencing | Saccharomyces cerevisiae, cyclin B1-Cln2 fusion | peptide tiling library | reference: Cln2 fusion control, direction not given | binding enrichment score | -0.0293 |

Repeated from above (series 1):
| setting | relative binding score [%] |
| --- | --- |
| added: (+)-ABA 4.8 µM | 32.1 |
| added: (+)-ABA 1.4 µM | 11.3 |
| added: (+)-ABA 0.032 µM | 4.25 |
